# Experimental data of several laboratories.
# ± marks the error that the study gave.
SMILES,cell line,test,setting,IC50
Cc1cc(O)c2c(c1)C(=O)c1cc(O)cc(O)c1C2=O,Jurkat,"cell growth or viability, ATP luminescence",24 h,9 µM
CC(C)OC(=O)C(n1cccn1)n1cccn1,"LoVo OXP, oxaliplatin-resistant",MTT,72 h,> 50 µM
CC(=O)C1=CC[C@H]2[C@]3(C)CC[C@H]4C(C)(C)CCC[C@]4(CO)[C@H]3C[C@H](O)[C@]2(C)[C@H]1C=O,T47D,luciferase reporter gene,"16 h, hypoxia 1% O2, added: pGL3-Control construct",2.6 µM
CC[C@]1(O)C[C@H]2CN(CCc3c([nH]c4ccccc34)[C@@](C(=O)OC)(c3cc4c(cc3OC)N(C=O)[C@H]3[C@@](O)(C(=O)OC)[C@H](OC(C)=O)[C@]5(CC)C=CCN6CC[C@]43[C@@H]65)C2)C1,HCT-15/ADM2,"cell growth, XTT",72 h,2.02 µg/mL
CN1CCN(c2nc3ccccc3nc2/C=C/c2ccccc2F)CC1,NCI-H460,"cell growth or viability, MTT",72 h,11.6 µM
CS(=O)(=O)CCNCc1ccc(-c2ccc3ncnc(Nc4ccc(OCc5cccc(F)c5)c(Cl)c4)c3c2)o1,A-431,"cell growth or viability, ATP luminescence",72 h,0.968 µM
C#CCOc1ccc(/C=N\Nc2ccc([N+](=O)[O-])cc2[N+](=O)[O-])cc1,T47D,"cell growth or viability, MTT",48 h,175 µM
O=c1[nH]c2ccccc2nc1/C=C/c1ccco1,NCI-H460,"cell growth or viability, MTT",72 h,> 50 µM
N#CC(=NNc1ccc(S(=O)(=O)Nc2ncccn2)cc1)C(N)=S,A-431,"cell growth or viability, MTT",48 h,18.2 µM
NCCN.O=C1[O][Pt]2([O]C(=O)C13CCC3)[O]C(=O)C1(CCC1)C(=O)[O]2,CH1,"cell viability, MTT",96 h,170 ± 54 µM
O=C(/C=C/Cc1cccc2ccccc12)NO,urothelial cancer cell lines,"cell viability, CellTiter-Glo",72 h,9 to 21 µM
CCN(CC)CCOc1ccc(-c2nc3ccc(Cl)cc3[nH]2)cc1,Z-138,"cell growth or viability, MTS",72 h,9.4 µM
Cc1cc(C(c2ccccc2)c2ccccc2)c(-n2ccn(-c3c(C(c4ccccc4)c4ccccc4)cc(C)cc3C(c3ccccc3)c3ccccc3)[c]2=[Au][Se]c2ccccc2)c(C(c2ccccc2)c2ccccc2)c1,Vero E6,"cytotoxicity, crystal violet staining",96 h,> 100 µM
C=C1C(=O)O[C@@H]2/C=C(\C)CC/C=C(\C)CC[C@@H]12,NCI/ADR-RES,"cell growth, inhibitor, Alamar blue",,17.1 ± 0.9 µM
COC(=O)CC(O)(CC(=O)OC)C(=O)O,Hepa-1c1c7,cell growth or viability,,> 100 µM
CCc1c(-c2ccc(Cl)cc2)c(-c2cccc(N3CCN(c4ccc(NS(=O)(=O)c5ccc(N[C@H](CCN(C)C)CSc6ccccc6)c([N+](=O)[O-])c5)cc4)CC3)c2)c(C(=O)O)n1C,NCI-H1417,cell growth or viability,,0.06 to 0.09 µM
COc1cc(C(=O)c2cn(Cc3ccccc3)c(-c3ccc(C)cc3)n2)cc(OC)c1OC,"A-375, WM164, LNCaP, PC-3, DU-145, PPC-1",cell growth,,0.94 µM
COc1ccc([C@H](CC(=O)O)N2CCN(CCCc3ccc4c(n3)NCCC4)C2=O)cn1,human primary kidney fibroblasts,"RT-PCR, measured: PAI-1 mRNA","24 h, added: TGF-β 5 ng/mL",0.163 µM
CC(C)(C)C(=O)Oc1ccc(S(=O)(=O)Nc2ccccc2C(=O)NCC(=O)O)cc1,BEAS-2B,"cell growth or viability, MTT",24 h,0.861 µM
O=C1Nc2ccccc2C1=Cc1cc2cc(Cl)ccc2nc1Cl,OV2008,"cell viability, MTT",72 h,48.8 µM
Nc1nc2[nH]c(CCCc3ccc(C(=O)O)s3)cc2c(=O)[nH]1,CHO RT16 (human FRα),cell growth,added: folic acid 200 nM,> 1 µM
O=c1[nH]c2ccccc2nc1/C=C/c1ccccc1,NCI-H460,"cell growth or viability, MTT",72 h,13.7 µM
CC(=O)c1c(O)cc(O)cc1O[C@@H]1O[C@H](CO)[C@@H](O)[C@H](O)[C@H]1O,Hepa-1c1c7,cell growth or viability,,> 100 µM
CS(=O)(=O)CCNCc1ccc(-c2ccc3ncnc(Nc4ccc(OCc5cccc(F)c5)c(Cl)c4)c3c2)o1,NCI-N87,"cell growth, inhibitor",standard medium,0.0352 ± 0.006 µM
N=C(N)NCCC[C@H](NC(=O)[C@@H]1CSSC[C@H](NC(=O)[C@H](Cc2ccc3ccccc3c2)NC(=O)[C@H](CCCNC(=N)N)NC(=O)[C@H](CCCNC(=N)N)NC(=O)c2ccc(F)cc2)C(=O)N[C@@H](Cc2ccc(O)cc2)C(=O)N[C@@H](CCCNC(N)=O)C(=O)N[C@@H](CCCCN)C(=O)N[C@H](CCCCN)C(=O)N2CCC[C@H]2C(=O)N[C@@H](Cc2ccc(O)cc2)C(=O)N[C@@H](CCCNC(=N)N)C(=O)N[C@@H](CCCNC(N)=O)C(=O)N1)C(N)=O,Jurkat,cell migration,3 h,0.001 µM
N=C(N)NCCC[C@H](NC(=O)[C@H](CCCNC(=N)N)NC(=O)[C@H](Cc1c[nH]c2ccccc12)NC(=O)[C@H](CCC(N)=O)NC(=O)[C@H](Cc1c[nH]c2ccccc12)NC(=O)[C@H](CCCNC(=N)N)NC(=O)[C@H](Cc1c[nH]c2ccccc12)NC(=O)[C@H](CCC(N)=O)NC(=O)[C@H](Cc1c[nH]c2ccccc12)NC(=O)[C@@H](N)CCCNC(=N)N)C(N)=O,MCF-12,"cell viability, MTT",2 h,76 µM
CC(=O)c1cc(C(=O)N[C@@H](C)Cn2ccc(-c3ccc(C#N)c(Cl)c3)n2)[nH]n1,VCaP,"cell growth or viability, ATP luminescence",,0.5 µM
O=c1c(/C=C/c2ccccn2)nc2ccccc2n1Cc1ccccc1,NCI-H460,"cell growth or viability, MTT",72 h,26.1 µM
O=C(COc1ccc(-c2nc3ccc(F)cc3[nH]2)cc1F)N1CCOCC1,Z-138,"cell growth or viability, MTS",72 h,> 100 µM
CC[C@H](C)[C@H](N)C(=O)N[C@H](C(=O)N[C@@H](CCCNC(=N)N)C(=O)N[C@@H](Cc1c[nH]c2ccccc12)C(=O)N[C@@H](CO)C(=O)N[C@@H](CCCCN)C(=O)N[C@@H](CCCCN)C(=O)N[C@H](C(=O)N1CCC[C@H]1C(=O)N[C@@H](CS)C(=O)N[C@H](C(=O)N[C@@H](CO)C(=O)O)C(C)C)C(C)C)C(C)C,SUP-T1,"AKT phosphorylation, inhibitor, phosphoflow cytometry","added: CXCL12 100 ng/mL, 2 min",38 ± 26.9 µM
CC(=O)O[C@H]1C(=O)[C@@]2(C)[C@H]([C@H](OC(=O)c3ccccc3)[C@]3(O)C[C@H](OC(=O)[C@H](O)[C@@H](NC(=O)c4ccccc4)c4ccccc4)C(C)=C1C3(C)C)[C@]1(OC(C)=O)CO[C@@H]1C[C@@H]2O,iPSC-derived sensory neurons,"neurite length, high-content imaging",48 h,0.005 µM
Cn1c(=O)c(/C=C/c2ccccc2Br)nc2ccccc21,NCI-H460,"cell growth or viability, MTT",72 h,> 50 µM
C/C(=C\CC/C(C)=C/CC[C@]1(C)CCc2cc(O)cc(C)c2O1)CC/C=C(\C)C(=O)O,differentiated HL-60,LTB4 formation,"10 min pre-incubation, added: thapsigargin",11 µM
C[C@]12CCC(=O)C=C1CC[C@@H]1[C@@H]2[C@@H](O)C[C@]2(C=O)[C@@H](C(=O)CO)CC[C@@H]12,GPER-transduced Sf9,"ERK phosphorylation, inhibitor, immunoblotting",15 min,9e-05 µM
Fc1cc(-c2nc3ccc(Cl)cc3[nH]2)ccc1OCc1cn(CCN2CCOCC2)nn1,Z-138,"cell growth or viability, MTS",72 h,> 100 µM
CC(C)=CCC/C(C)=C/CC/C(C)=C/CC[C@]1(C)CCc2cc(O)cc(C)c2O1,differentiated HL-60,LTB4 formation,"10 min preincubation, added: thapsigargin",8 µM
CCN(CC)CCOc1ccc(-c2nc3ccc(F)cc3[nH]2)cc1F,Z-138,"cell growth or viability, MTS",72 h,11.5 µM
O=C(O)c1cc(O)c2c(c1)C(=O)c1cccc(O)c1C2=O,Jurkat,"cell growth or viability, ATP luminescence",24 h,277 µM
Cn1c(=O)c(/C=C/c2ccccc2Cl)nc2ccccc21,B16-F10,"cell growth or viability, MTT",72 h,9.95 µM
COc1c2ccoc2c(OCC=C(C)C)c2oc(=O)ccc12,COLO 320 multidrug-resistant,"cell growth, MTT",72 h,43.7 ± 1.78 µM
CCCC[C@@H](C=O)NC(=O)[C@H](CC(C)C)NC(=O)OCc1ccccc1,H4 cells overexpressing human APP K595N/M596L,"amyloid beta secretion, MSD immunoassay, measured: amyloid beta 38",24 h,4 µM
CC(=O)OC1OC(OC(C)=O)[C@@H]2CCC=C[C@H]12 (stereo partly shown),human T lymphocytes,"interleukin-2 release, inhibitor, ELISA","pre-treated 2 h, added: concanavalin A 50 µg/mL 48 h",> 10 µM
C=CCN1c2cccnc2Sc2cccnc21,SNB-19,"cell growth or viability, WST-1",72 h,~20 µg/mL
Cc1ccc2nc(NC(=O)Cn3cc(COc4ccc(/C=N/NC(=O)c5ccccc5)cc4)nn3)sc2c1,T47D,"cell viability, MTT",48 h,17 µM
Cn1c(=O)c(/C=C/c2ccccn2)nc2ccccc21,B16-F10,"cell growth or viability, MTT",72 h,6.64 µM
CC(=O)C(=NNc1ccc(S(=O)(=O)Nc2ncccn2)cc1)C(=O)c1ccccc1,A-431,"cell growth or viability, MTT",48 h,4.78 to 7.56 µM
CCC(CC)c1cccc(C(CC)CC)c1-n1ccn(-c2c(C(CC)CC)cccc2C(CC)CC)[c]1=[Au][Se]c1ccccc1,Vero E6,"cytotoxicity, crystal violet staining",96 h,> 100 µM
Cc1ccc2nc(NC(=O)Cn3cc(COc4ccc(/C=N\NC(N)=S)cc4)nn3)sc2c1,T47D,"cell growth or viability, MTT",48 h,119 µM
O=c1[nH]c2ccccc2nc1/C=C/c1ccccc1F,B16-F10,"cell growth or viability, MTT",72 h,11.6 µM
O=C(COc1ccc(-c2nc3ccccc3[nH]2)cc1)N1CCOCC1,Z-138,"cell growth or viability, MTS",72 h,> 100 µM
COCc1c(C(C)C)nc(C(C)C)c(/C=C/[C@@H](O)C[C@@H](O)CC(=O)O)c1-c1ccc(F)cc1,T47D,"cell growth, SRB",72 h,16.2 µM
C=CC(C)(CO)c1cc2c(=O)c(-c3ccc(O)cc3O)coc2cc1O (stereo not shown),Hepa-1c1c7,cell growth or viability,,> 100 µM

# Repeated from above:
SMILES,cell line,test,setting,IC50
CCN(CC)CCOc1ccc(-c2nc3ccc(F)cc3[nH]2)cc1F,Z-138,"cell growth or viability, MTS",72 h,11.5 µM
N#CC(=NNc1ccc(S(=O)(=O)Nc2ncccn2)cc1)C(N)=S,A-431,"cell growth or viability, MTT",48 h,18.2 µM
CC(=O)C(=NNc1ccc(S(=O)(=O)Nc2ncccn2)cc1)C(=O)c1ccccc1,A-431,"cell growth or viability, MTT",48 h,4.78 to 7.56 µM
Cc1ccc2nc(NC(=O)Cn3cc(COc4ccc(/C=N\NC(N)=S)cc4)nn3)sc2c1,T47D,"cell growth or viability, MTT",48 h,119 µM
O=c1[nH]c2ccccc2nc1/C=C/c1ccccc1,NCI-H460,"cell growth or viability, MTT",72 h,13.7 µM
CC(=O)O[C@H]1C(=O)[C@@]2(C)[C@H]([C@H](OC(=O)c3ccccc3)[C@]3(O)C[C@H](OC(=O)[C@H](O)[C@@H](NC(=O)c4ccccc4)c4ccccc4)C(C)=C1C3(C)C)[C@]1(OC(C)=O)CO[C@@H]1C[C@@H]2O,iPSC-derived sensory neurons,"neurite length, high-content imaging",48 h,0.005 µM
CC(=O)OC1OC(OC(C)=O)[C@@H]2CCC=C[C@H]12 (stereo partly shown),human T lymphocytes,"interleukin-2 release, inhibitor, ELISA","pre-treated 2 h, added: concanavalin A 50 µg/mL 48 h",> 10 µM
